Measured values of several laboratories.
Each numbered part is a random draw from the data of one study; scales do not carry over between parts. Substitutions count along the parent as printed.

Series 1 — target: CCNB1, cyclin fold, Cln2 fusion (human); technique: yeast growth competition, sequencing; medium: yeast; setting: strong parent motif; reference: not given; reading: higher = stronger binding; endpoint: normalised enrichment score
Parent: viral docking peptide; KGVKRKLFAEDSS; partner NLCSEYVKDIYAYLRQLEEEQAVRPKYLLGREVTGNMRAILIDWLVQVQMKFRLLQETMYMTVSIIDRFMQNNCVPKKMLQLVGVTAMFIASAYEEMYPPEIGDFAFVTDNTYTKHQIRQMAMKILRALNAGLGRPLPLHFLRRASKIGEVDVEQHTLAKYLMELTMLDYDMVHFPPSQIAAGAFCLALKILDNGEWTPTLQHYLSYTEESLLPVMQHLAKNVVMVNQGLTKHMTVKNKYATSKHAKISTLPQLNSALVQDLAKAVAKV
KGVKRKIFAEDSS [L7I]: 0.401
KGTKRKLFAEDSS [V3T]: 0.595
KGVKRALFAEDSS [K6A]: 2.03
KGVKRKLHAEDSS [F8H]: -0.00615
KGVKRKLFVEDSS [A9V]: 2.16
KGVKRKLFAEDHS [S12H]: 2.33
KGVKRKLWAEDSS [F8W]: 0.301
KGVKRKLFAERSS [D11R]: 0.676
KGVKRKLVAEDSS [F8V]: 1.33
KGVGRKLFAEDSS [K4G]: 0.65
KGVKRKLFAHDSS [E10H]: 0.553
KGVKRKLFANDSS [E10N]: 1.19
KGVKRTLFAEDSS [K6T]: 1.24

Series 2 — target: UBE2D3 UBC core domain (UniProt P61077); technique: yeast two-hybrid; medium: yeast; setting: mostly zero background; reference: not given; reading: higher = stronger interaction; endpoint: lacZ reporter activity
B1: TRIM32 RING domain (UniProt Q13049); chain NLDALREVLECPICMESFTEEQLRPKLLHCGHTICRQCLEKLLASSINGVRCPFCSKITRITSLTQ
B2: PJA2 RING domain (UniProt O43164); chain DHTAIGQEQCCPICCSEYIKDDIATELPCHHFFHKPCVSIWLQKSGTCPVCRRHFPPAVIEA
B3: RMND5B RING domain (UniProt Q96G75); chain MKCWYHSVFACPILRQQTSDSNPPIKLICGHVISRDALNKLINGGKLKCPYCPMEQNPADGK
B4: MARCHF2 RING domain (UniProt Q9P0N8); chain RLLSTVIRALDTPSDGPFCRICHEGANGECLLSPCGCTGTLGAVHKSCLEKWLSSSNTSYCELCHTEFAVEKRPRPLTEWL
Residues (chain): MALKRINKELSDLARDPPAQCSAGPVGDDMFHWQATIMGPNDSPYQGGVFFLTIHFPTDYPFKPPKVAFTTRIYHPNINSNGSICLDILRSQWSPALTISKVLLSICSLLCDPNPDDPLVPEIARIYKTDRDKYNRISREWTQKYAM
PLRRLQEEKLCKICMDRHIAVVFIPCGHLVTCKQCAEAVDRCPMCSAVIDFKQRVF (BIRC8 RING domain (UniProt Q96P09)): 0
B1 (TRIM32 RING domain): 0
B2 (PJA2 RING domain): 2670
B3 (RMND5B RING domain): 10700
EIKDYKARLTCPCCNMRKKDAVLTKCFHVFCFECVKTRYDTRQRKCPKCNAAFGANDFHR (RNF20 RING domain (UniProt Q5VTR2)): 0
B4 (MARCHF2 RING domain): 0

Series 3 — technique: two-hybrid; reference: out of 4 tests; reading: higher = firmer interaction; endpoint: positive tests
Partner: ARF16 570-670 (Arabidopsis thaliana, UniProt Q93YR9)
B5: IAA33 (Arabidopsis thaliana, UniProt Q9FKM7); chain MNSFEPQSQDSLQRRFHQDNSTTQQPRDTTTPFIPKPASKNHNNSNSSSGAAGRSFQGFGLNVEDDLVSSVVPPVTVVLEGRSICQRISLDKHGSYQSLASALRQMFVDGADSTDDLDLSNAIPGHLIAYEDMENDLLLAGDLTWKDFVRVAKRIRILPVKGNTRQVKRNE
B6: ARF4 660-788 (Arabidopsis thaliana, UniProt Q9ZTX9); chain QSSSKRICTKVHKQGSQVGRAIDLSRLNGYDDLLMELERLFNMEGLLRDPEKGWRILYTDSENDMMVVGDDPWHDFCNVVWKIHLYTKEEVENANDDNKSCLEQAALMMEASKSSSVSQPDSSPTITRV
B7: IAA19 (Arabidopsis thaliana, UniProt O24409); chain MEKEGLGLEITELRLGLPGRDVAEKMMKKRAFTEMNMTSSGSNSDQCESGVVSSGGDAEKVNDSPAAKSQVVGWPPVCSYRKKNSCKEASTTKVGLGYVKVSMDGVPYLRKMDLGSSQGYDDLAFALDKLFGFRGIGVALKDGDNCEYVTIYEDKDGDWMLAGDVPWGMFLESCKRLRIMKRSDATGFGLQPRGVDE
B8: IAA13 (Arabidopsis thaliana, UniProt Q38831); chain MITELEMGKGESELELGLGLSLGGGTAAKIGKSGGGGAWGERGRLLTAKDFPSVGSKRAADSASHAGSSPPRSSSQVVGWPPIGSHRMNSLVNNQATKSAREEEEAGKKKVKDDEPKDVTKKVNGKVQVGFIKVNMDGVAIGRKVDLNAHSSYENLAQTLEDMFFRTNPGTVGLTSQFTKPLRLLDGSSEFVLTYEDKEGDWMLVGDVPWRMFINSVKRLRVMKTSEANGLAARNQEPNERQRKQPV
Target sequence (chain): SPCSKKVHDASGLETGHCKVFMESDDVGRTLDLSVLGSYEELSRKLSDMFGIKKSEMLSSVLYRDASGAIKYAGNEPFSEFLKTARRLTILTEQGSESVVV
B5 (IAA33): 3
B6 (ARF4 660-788): 0
B7 (IAA19): 0
B8 (IAA13): 0

Series 4 — technique: DHFR PCA, dose-response; medium: yeast; setting: Hill fit, mean, not affinity; together with: (+)-ABA, dose series; reading: lower = more sensitive; endpoint: ABA EC50
Target: ABI1, truncated, D143A, DHFR fusion (Arabidopsis thaliana, UniProt P49597)
Parent: PYL1, truncated, DHFR fusion (Arabidopsis thaliana, UniProt Q8VZS8); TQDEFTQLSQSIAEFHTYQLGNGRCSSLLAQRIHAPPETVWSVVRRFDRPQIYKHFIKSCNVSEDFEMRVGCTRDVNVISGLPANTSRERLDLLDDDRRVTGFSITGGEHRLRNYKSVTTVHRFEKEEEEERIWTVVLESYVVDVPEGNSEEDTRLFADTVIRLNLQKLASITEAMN
T73Q: 2860 nM
V62A: 41400 nM
H55K: 478 nM
T1Q: 2830 nM
I12S: 181000 nM
F124G: 6040 nM
R123A: 2950 nM
C72S: 2670 nM
